Experimental data gathered from unrelated publications.
Every numbered part comes from another study and shows a few of its results, in no order. Substitutions count along the parent as printed.

Study 1
Target: CCNA2, cyclin fold, Cln2 fusion (human)
Method: yeast growth competition, sequencing
Medium: yeast
Setting: strong parent motif
Relative to: not given
Direction: higher = stronger binding
Endpoint: normalised enrichment score
Starting sequence: INSM1 docking peptide (human); PKAIRKLHFEDEV
Variant = PKAIRKAHFEDEV [L7A]; result = 0.0108
Variant = PKAIFKLHFEDEV [R5F]; result = 0.252
Variant = PKAKRKLHFEDEV [I4K]; result = 6.91
Variant = PKAIRKQHFEDEV [L7Q]; result = 0.0853
Variant = PKAIRKLHFEDMV [E12M]; result = 5.96
Variant = PKAIRKLHFEREV [D11R]; result = 4.34
Variant = PKAIRKLHMEDEV [F9M]; result = 1.2
Variant = PKAIRKLHFEDAV [E12A]; result = 5.05
Variant = PKAIVKLHFEDEV [R5V]; result = 1.13
Variant = PKAIRKNHFEDEV [L7N]; result = 0.131
Variant = PNAIRKLHFEDEV [K2N]; result = 4.68
Variant = PKAIRKLQFEDEV [H8Q]; result = 5.35
Variant = PKWIRKLHFEDEV [A3W]; result = 1.98
Variant = PKAIRKLHFEDFV [E12F]; result = 5.07
Variant = PKAIRKLHFADEV [E10A]; result = 4.89
Variant = PKAIRKLHFEDKV [E12K]; result = 4.94
Variant = PDAIRKLHFEDEV [K2D]; result = 2.73
Variant = PKLIRKLHFEDEV [A3L]; result = 2.27
Variant = PKAIRKLMFEDEV [H8M]; result = 5.33
Variant = PKAIRKLHWEDEV [F9W]; result = 1.89
Variant = PKAIEKLHFEDEV [R5E]; result = -0.022
Variant = PKAIRKLHDEDEV [F9D]; result = -0.235
Variant = PKAIRKMHFEDEV [L7M]; result = 0.555
Variant = PKAHRKLHFEDEV [I4H]; result = 5.95
Variant = PKAIRKLHFEIEV [D11I]; result = 4.32

Study 2
Target: ABI1, truncated, D143A, DHFR fusion (Arabidopsis thaliana)
Method: DHFR PCA, deep sequencing
Medium: yeast
Setting: methotrexate growth selection, single substitutions
Added: (+)-ABA 1.4 µM
Relative to: wild-type fitted maximum
Direction: higher = stronger binding
Endpoint: relative binding score
Starting sequence: PYL1, truncated, DHFR fusion (Arabidopsis thaliana); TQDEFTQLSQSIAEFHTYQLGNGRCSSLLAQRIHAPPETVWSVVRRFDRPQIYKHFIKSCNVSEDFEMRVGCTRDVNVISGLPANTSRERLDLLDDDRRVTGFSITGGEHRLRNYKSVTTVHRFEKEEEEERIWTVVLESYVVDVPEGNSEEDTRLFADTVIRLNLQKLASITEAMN; partner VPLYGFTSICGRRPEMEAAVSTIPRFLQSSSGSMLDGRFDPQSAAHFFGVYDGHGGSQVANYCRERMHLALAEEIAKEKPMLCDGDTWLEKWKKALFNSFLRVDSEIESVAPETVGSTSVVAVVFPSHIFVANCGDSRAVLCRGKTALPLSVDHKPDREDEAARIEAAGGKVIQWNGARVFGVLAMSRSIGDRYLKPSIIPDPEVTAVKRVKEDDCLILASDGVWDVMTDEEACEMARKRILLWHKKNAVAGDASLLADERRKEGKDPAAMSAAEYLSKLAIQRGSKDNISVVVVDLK
Variant = P146T; result = 10.3%
Variant = V136Y; result = 36.9%
Variant = V142C; result = 53.2%
Variant = C25P; result = -3.46%
Variant = S59T; result = 51%
Variant = I172N; result = -21%
Variant = L156P; result = 3.77%
Variant = D159P; result = -18.8%
Variant = I162F; result = -23.8%
Variant = R113K; result = 78%
Variant = W41H; result = 4.89%
Variant = C25G; result = -14.7%
Variant = G81K; result = -9.13%
Variant = S59H; result = 28.9%
Variant = I162G; result = 6.54%

Study 3
Target: RNA binding protein fox-1 homolog 2, RRM domain, GST-SBP tag (RBFOX2, Homo sapiens, UniProt O43251-10, residues 100-194)
Method: RNA Bind-n-Seq
Form: RNA
Medium: in vitro
Concentration: 365 nM
Setting: natural RNA segment, single round, ends assumed
Relative to: no-protein control
Direction: higher = stronger binding
Endpoint: RBNS enrichment (R)
Shared flanks, not repeated: GGGAGUUCUACAGUCCGACGAUC … UGGAAUUCUCGGGUGCCAA
Construct (chain): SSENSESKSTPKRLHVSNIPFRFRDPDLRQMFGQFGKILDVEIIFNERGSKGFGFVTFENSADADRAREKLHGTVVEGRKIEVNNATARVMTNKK
Strand = GCUUAUGUAGCACUUCUGGACCCUGCUAUAAGCUGAGAAGUCUAGAGGUUGGUUUGGGGACCAACCAAGCUACCAACCUUAAGGGUAACUUGGUCUCGAUUUAGGAGCCU; result = 0.334
Strand = AGUGUCCCUUUUGUGUCUGGCUUGCUGAGUAUAGAAGCUGUCACCUGGACGAUUCUGCUCCUCAGCUCCAAAGAAUCCUGGGGUCAACGUCCCAGGCCAGCCGCAUGGGA; result = 0.269
Strand = UUUUAAGAUCAUUAUUUGAUAGCUGUAGCAUGAAGCAGAGGUUGAUGAUGCCCAUAAUUGCAAGACUAUUCCUGUAAAAAUAACAAUUAUUGGGUAAUAACUUCAAGAGG; result = 12.2
Strand = CUGCCUUAGAAAGUUAAUAUAUUUUAAAUUAUUUUAAAAGAAACUCAACAUCUUAUUCUUUGGCCUUUCUUAAUUGAUGCUUUAUGGAGGCAGUGUUAACAUUGUACAGU; result = 0.471
Strand = AAAAAAAAAAAAAACAACAAAAACUUAGAAUUGAGGAGUUGUACCUCCAUUGGCUUCCUCACUCCAAAAUAGGUGCUGAUCCUUCCUAUUCCUAUUCUUUGCCACCUUUU; result = 1.02
Strand = GUGUUGCCACCACUUCUAAAAAUUUAGCAAUAUUAGAAUAGGAUACUAGUGAAGUAAGAAAUUUUGCUUGUUGUUUUGCAAACCAAAUAGUUUCCUCAAACACAAAUCAG; result = 3
Strand = CAUGUGAUGUGAGACAGAAACCUAAACAUGGUACUUGAUUCUAAACCUGUGCCAGUCUAUAGCCUCUGCCUCCCCAAGCAGAGCUCAAGCCAAACGCUUCUGUCCUCUUU; result = 0.257
Strand = CAAUGGGUUCCGUUUCUCCUUUUCCCCUCUGGAUUUUAAAUAAAUAUUUAAAACUGAGGCAAUGGAAUGACACGCCUGUGGUCCCGUGCUGCUUCUCAAAGCUCAGGGGG; result = 0.273
Strand = UCCUGUCAUUUUCAUGUGGCUUGAGCUCUGAGACGUGCGGAUGAGGCUGGACAACUACUACCCAUACAAUUAGGGGGUCAAAAUAACUUUAAAUAAAUAGCAUCGGACUU; result = 0.685
Strand = GUUUACUUGAAGAAAAAAGCACCCGUGGAGAAUAAAGAGACCUCAAUAAACAAGAAUAAUCAUGUGACGUGGAAUCUGUUUUCUCACCUUCUGUUCUCGAUUUCCCAUCU; result = 0.333
Strand = UUGACCCACCAUCCGUUGCAGAAGCCUCCAGGAGCAGCAAUCCUAAGAGUGGGAGGCAGCCAAGACCCCCUUCCUUCAAAACCUCCCGGAAGUGGUUUCAGGCCCUCUAG; result = 0.404
Strand = GAGGUCUCUGAAGAGCAGGCUCAGGGAAAAGAUGAGUUUUCAGAGCUGAUGUGAUAGUCAGCUUCUCUGGAGUCAACAGGGUGAAUCCUUCCCAAGUCCAGCCAUGCCCA; result = 0.415

Study 4
Target: Ras GTPase-activating protein-binding protein 1, full length (G3BP1, Homo sapiens, UniProt Q13283)
Chain of UniProt Q13283 (whole entry, looked up): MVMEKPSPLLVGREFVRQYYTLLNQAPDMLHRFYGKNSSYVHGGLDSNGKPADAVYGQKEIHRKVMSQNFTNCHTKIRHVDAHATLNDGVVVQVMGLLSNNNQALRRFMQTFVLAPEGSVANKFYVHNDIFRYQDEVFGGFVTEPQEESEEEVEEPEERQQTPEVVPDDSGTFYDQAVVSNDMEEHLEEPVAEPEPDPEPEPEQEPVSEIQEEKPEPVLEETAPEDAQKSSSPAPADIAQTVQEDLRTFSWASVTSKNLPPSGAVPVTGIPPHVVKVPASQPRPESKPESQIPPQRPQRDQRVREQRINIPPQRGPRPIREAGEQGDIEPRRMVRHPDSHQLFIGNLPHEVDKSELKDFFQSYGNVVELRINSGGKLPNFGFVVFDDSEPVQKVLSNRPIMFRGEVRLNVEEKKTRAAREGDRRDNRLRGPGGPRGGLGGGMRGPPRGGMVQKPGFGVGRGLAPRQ
Method: RNA Bind-n-Seq
Form: RNA
Medium: in vitro
Concentration: 200 nM
Setting: whole 134-nt RNA, ends assumed
Added: 150 mM LiCl
Relative to: input library
Direction: higher = stronger binding
Endpoint: log2 enrichment
Library: 7-deaza-guanosine replaces G
Shared flanks, not repeated: GGGAGUUCUACAGUCCGACGAUC … UGGAAUUCUCGGGUGUCAAGG
Strand = GCAGGAAGUAAAAACAAAUGGAAAUGCUUCGGAUAGUGGCAGGGGUGGGGGUUGCUGAGGAAAGGGUGGGAUGGGAGUGGGUAAAGAGUU; result = 0.382
Strand = CACAGACAACACGCACCCACACAGACACAGAGGGAAGGGGUUGAGAUGGGGACAGGGUGCACAGCAGGGCGGGGUAGGACCCCAGCCCCU; result = -0.932
Strand = CCUGUGCUACACAUCGUAUGUACCGAAUCGGCCCCCCCGGCCCCCCCGGGCCCCCCCGGGAAAGUAUUAUGUUACGCCGUUCGGAUCUGC; result = 0.349
Strand = GUCCUGUGCUACACAUCGUAUGUACCGAAUCGGGGAAAAAGGAAAAAGGGGAAAAAGGAAAGUAUUAUGUUACGCCGUUCGGAUCUGCAC; result = -0.116
Strand = UCAAGUCCUGUGCUACACAUCGUAUGUACCGAAUCGGGAAAAAGGGAGGGUGGGAAAGUAUUAUGUUACGCCGUUCGGAUCUGCACUUCC; result = -0.315
Strand = UGUGCUACACAUCGUAUGUACCGAAUCGGGGAAAAAAAGGGGAAAAAAAGGAAAAAAAGGGGAAAGUAUUAUGUUACGCCGUUCGGAUCU; result = 0.383
Strand = UAGGAGGUGGAUUUUGUUUAUUUUUUUAGCUCAUUUCCAGGGGUGGGAAUUUUUUUUUAAUAUGUGUCAUGAAUAAAGUUGUUUUUGAAA; result = 0.0863
Strand = CCUCAAGUCCUGUGCUACACAUCGUAUGUACCGAAUCGGGGCGGGCGGCGGGGAAAGUAUUAUGUUACGCCGUUCGGAUCUGCACUUCCA; result = 0.371
Strand = AAGUCCUGUGCUACACAUCGUAUGUACCGAAUCGGUUUUGGGUUUUGGGUUUUGGGAAAGUAUUAUGUUACGCCGUUCGGAUCUGCACUU; result = -0.413
Strand = AAGUCCUGUGCUACACAUCGUAUGUACCGAAUCGGGAGGGUUUUUUUGGGUUUGGGAAAGUAUUAUGUUACGCCGUUCGGAUCUGCACUU; result = -1.04
Strand = AGUCCUGUGCUACACAUCGUAUGUACCGAAUCGGGUUUUUGGGUGGGUUUUUUUGGGAAAGUAUUAUGUUACGCCGUUCGGAUCUGCACU; result = -0.724

Other studies, line by line
Molecule = PhoQ, residues 284 288 289 292 302 303 TLSLKA; target = PhoP, residues 12 14 15 18 19 VHTVL (Escherichia coli, UniProt P23836); test = Sort-seq, refers to: YFP reporter; system = E. coli; setting = PhoQ-PhoP variant library, added: 10 µM Mg2+; how to read = relative to: high Mg2+ state, higher = stronger signaling; endpoint = fold induction; result = 1.15
